Measurements pooled from the literature.
Lines come from different studies, so protocols differ. Values joined by “and” are separate records of one study, mostly repeats; a detail may differ.
Target: cAMP-dependent protein kinase catalytic subunit alpha (PRKACA, Homo sapiens, UniProt P17612)

Cc1cccc(-c2ccc3nc(NC(=O)C4CCOCC4)nn3c2)c1 — remaining activity (enzyme activity, Dundee kinase panel; 10 µM): 82%
COc1cc(Nc2nccc(-c3cnn4nc(OC)ccc34)n2)cc(C(F)(F)F)c1 — remaining binding (binding, competition with immobilised ligand; 1 µM): 97%
Cc1ccc(-c2c(/C=C(\C#N)C(=O)NC(C)C)n(CCCO)c3ncnc(N)c23)cc1 — remaining binding (cell-free assay, competition with immobilised ligand; 1 µM): 100%
Nc1ncc2c(n1)-c1c([nH]c3ccc(C4=CCOCC4)cc13)CCC2 — remaining binding (binding, competition with immobilised ligand; 1 µM): 100%
O=C(Cc1ccc(OCc2ccccc2)cc1)NC1(C(=O)O)CCN(C(=O)c2ccc(-c3cccc(Cl)c3)cc2)CC1 — activity vs control (enzyme activity, inhibitor; 10 µM): 90%
N[C@H]1CC[C@H](Nc2nccc(-c3cccnc3Oc3ccc(NC(=O)NC4CC4)c4ccccc34)n2)CC1 — log2 LFQ intensity (kinobead competition pulldown; HEK293/HCT116 lysate mixture; 10 µM, 1 h, 4 °C; lower = stronger competition): 22.5 and 20.4 and 22.7 and 22.8
COc1ccc(O)cc1-c1c[nH]c2ncc(-c3cncc(C(=O)N(C)C)c3)cc12 — inhibition (binding, competition with immobilised ligand; 0.2 µM): -5.82%
CN1CCN(Cc2ccc(-c3ccc(CO[C@H]4CCC[C@@H]4NC(=O)c4cc(-c5cnn(C)c5)cnc4N)cc3)cc2)CC1 — inhibition (enzyme activity, inhibitor; 0.1 µM): -8%
COc1c(OCCCN2CCOCC2)ccc2c1N=C(NC(=O)c1cnc(N)nc1)N1CCN=C21 — remaining activity (kinase activity, inhibitor; 1 µM; relative to: untreated control): 96%
NC(=O)C[C@H]1CCc2sc3ncnc(O[C@H]4CC[C@H](N5CCOCC5)CC4)c3c21 — inhibition (enzyme activity, inhibitor; 10 µM): 13%
CNC(=O)C1CCN(c2cc(C)c(F)cc2NC(=O)c2ccc(-c3cc(O)ccc3C)c(C)c2)CC1 — remaining binding (binding, competition with immobilised ligand; 1 µM): 73%
CN1CCN(Cc2ccc(NC(=O)c3cccc(C#Cc4cnc(N)c5ncccc45)c3)cc2C(F)(F)F)CC1 — remaining binding (cell-free assay, competition with immobilised ligand; 0.5 µM): 69%
C=CC(=O)Nc1cccc(-c2cnc3[nH]cc(C(=O)NC(C)(C)C)c3n2)c1 — inhibition (enzyme activity, inhibitor; 0.1 µM): 4%
CC(=O)N1c2ccc(-c3ccc(CNC(=O)c4cn5cc(-c6cnc(N)nc6)nc(N6CCOCC6)c5n4)cc3)cc2CC[C@@H]1C — remaining binding (KINOMEscan; 10 µM): 100%
Cc1cnc2nc1Nc1cccc(c1)COC/C=C/COCc1cc(ccc1OCCN1CCOCC1)N2 — remaining binding (binding, competition with immobilised ligand; 0.1 µM): 100%
Nc1ncc(-c2cc(-c3cnn(CC(F)(F)F)c3)ncc2F)nc1C(=O)NC1CNCC(F)C1 (stereo not drawn) — remaining activity (enzyme activity; 1 µM; relative to: DMSO control): 89.8%
COc1ccc(NC(=O)Nc2ccc3c(c2)C(=O)N(C(C)CO)CC(C)C(CN(C)Cc2ccc4c(c2)OCO4)O3)cc1 (stereo not drawn) — remaining binding (binding, competition with immobilised ligand; 10 µM): 69%
Cc1cccc(-c2ccc3nc(NC(=O)C4CCCCC4)nn3c2)c1 — remaining activity (enzyme activity, Dundee kinase panel; 10 µM): 87%
CNC1C[S+]2CC[S+]3CC[S+](C1)[Ru-4]321([N]=C=S)[n]2c3ccc(OC)cc3c3c4c(c5cc(F)c[n+]1c5c32)C(=O)NC4=O (stereo not drawn) — remaining binding (KinomeScan; 0.1 µM; relative to: untreated): 98%
O=C(O)CCC(=O)c1cccc(NS(=O)(=O)c2c[nH]c3ncccc23)c1 — remaining activity (kinase activity, radiometric; 10 µM): 89%
CN1CC[C@@H](COc2cnc(C#N)cc2-c2ccn3nc(NC(=O)C4CC4)cc3c2)C1 — inhibition (enzyme activity, inhibitor; 1 µM): 16%
Cc1cccc(O[C@H]2CCC[C@@H](C(C)CNCc3ccncc3)C2)c1 (relative stereo) — inhibition (enzyme activity, inhibitor; 1 µM): -2%
Nc1nc(Nc2ccccc2)sc1C(=O)c1ccccc1 — remaining activity (enzyme activity, inhibitor; 10 µM): 77%
CNS(=O)(=O)Nc1nccc(Cc2c(C)c3ccc(Oc4ncccc4F)cc3oc2=O)c1F — remaining binding (cell-free assay, competition with immobilised ligand; 10 µM): 94%
